# Measurements collected from several papers.
# “And” joins repeats or separate records; there may be more than shown. ± gives the spread as reported.
SMILES,cell line,test,setting,how to read,measurement,value
O=c1ncn2nc(Sc3ccc(F)cc3F)ccc2c1-c1c(Cl)cccc1Cl,iCell cardiomyocytes hiPSC-derived,impedance,"concentration not given, 2 h",reference: vehicle,beat rate,105%
[Cl][64Cu][Cl],BxPC-3,,37 °C,,membrane-bound fraction,6.2 ± 0.2%
CCC/N=C1\S/C(=C\c2ccc(OC[C@H](O)CO)c(Cl)c2)C(=O)N1c1ccccc1C,human primary astrocytes,"single-cell RNA-seq, refers to: NPPB mRNA","concentration not given, 24 h, added: cytokines",reference: cytokines alone,log2 fold change,0.508
COc1ccc(NC(=S)N/N=C/c2cccc3cc4ccccc4nc23)cc1,HeLa,annexin V/PI flow cytometry,"IC25, 48 h",,necrotic cells,0.69 ± 0.27%
CSc1nc(-c2ccnc(NC(C)c3ccccc3)c2)c(-c2ccc(F)cc2)[nH]1 (stereo not shown),HeLa expressing Ub(G76V)-GFP,"Ub(G76V)-GFP degradation, cycloheximide chase",12 µM,,inhibition,46%
COc1cnc2cccc(N3CCc4c(cc(Cn5ccnc5C)cc4-c4cn(C)nc4C(F)(F)F)C3=O)c2c1,HuTu80,"cell growth, inhibitor",120 h,,EC50,16.5 µM
O=C(O)CC[C@H](NC(=O)N[C@@H](CCCCNC(=O)CCCCCCC(=O)NCCCC[C@@H](NC(=O)[C@H](CCC(=O)O)NC(=O)[C@H](CCC(=O)O)NC(=O)CCC(=O)NCCCN1CC[S][Tc]2(=[O])[S]CC[N]2CC1)C(=O)O)C(=O)O)C(=O)O (stereo partly shown) [technetium-99m labelled],LNCaP,,"25 nM, 1 h, 37 °C",,internalized activity,2.89 ± 0.21 %AD/mg protein
Cl.Cl.OCCOCCN1CCN(Cc2cccc(Oc3ccccc3)c2)CC1,BT-12,"cell viability, MTT","10 µM, 72 h",,inhibition,83.2%
Nc1ccc2ncnc(NCCc3ccc(Oc4ccccc4)cc3)c2c1,HeLa expressing Ub(G76V)-GFP,"Ub(G76V)-GFP degradation, cycloheximide chase",12 µM,,inhibition,20%
OCc1ccc(Nc2ccc3c(Nc4cccc(C(F)(F)F)c4)ncnc3c2)cc1,MDA-MB-231,,"IC50, 24 h",,G2/M phase cells,7.71%
CC1(C)CCC(CN2CCN(c3ccc(C(=O)NS(=O)(=O)c4ccc(NCC5CCOCC5)c([N+](=O)[O-])c4)c(Oc4cnc5[nH]ccc5c4)c3)CC2)=C(c2ccc(Cl)cc2)C1,CD3+CD4- T cells,cell viability,AML patients,,IC50,0.00741 µM
CCCCCCCCCCCCCCCC[N+](C)(C)CCN(Cc1ccc(OC)cc1)c1ncccn1,BT-12,"cell viability, MTT","10 µM, 72 h",,inhibition,95.5%
O=C1NC(=O)C(c2ccccc2)(c2ccccc2)N1,hiPSC glutamatergic neurons,"burst frequency, multi-electrode array",1 h,,lowest effective concentration,1 µM
O=C(C[C@@H](C(F)F)n1ccc(F)n1)N1CCC(O)(Cn2cnc3c(cnn3-c3ccc(F)cc3)c2=O)CC1,CHP-212 resistant,PI staining flow cytometry,"0.3 µM, 24 h",,cells in S phase,10.7% and 15.2% and 14.7%
CC(/C=C/C(=O)NO)=C\[C@@H](C)C(=O)c1ccc(N(C)C)cc1,BT-12,"cell viability, MTT","10 µM, 72 h",,inhibition,93.4%
CC[S+]([O-])c1nc(-c2cccc(OCc3ccccc3)c2)cc(C(F)(F)F)n1 (stereo not shown),HeLa Kyoto,"RelA nuclear import, high content imaging","0.16 µM, 3 h, added: 1 µM PMA, 60 min",,cells with nuclear RelA,69.8% and 87.2%
CC(C)c1nn(-c2c(Cl)cccc2Cl)c2nc(Cc3ccc(OCCO)cc3)[nH]c(=O)c12,HeLa expressing Ub(G76V)-GFP,"Ub(G76V)-GFP degradation, cycloheximide chase",12 µM,,inhibition,14%
CC[C@H](C)n1cc(C)c2c(C(=O)NCc3c(C)cc(C)[nH]c3=O)cc(-c3ccc(N4CCNCC4)nc3)cc21,HBL-1,,"0.1 µM, 120 h",,viability,137%
O=c1[nH]nc(OCCCc2ccc(Cl)cc2)c(NCc2cccnc2)c1Br,HEK-293T,"RNA-seq GSEA, refers to: HALLMARK_ESTROGEN_RESPONSE_LATE",concentration not given,direction not given,normalized enrichment score,-1.26
CC(C)(C)n1nc(Cc2cccc3ccccc23)c2c(N)ncnc21,HeLa expressing Ub(G76V)-GFP,"Ub(G76V)-GFP degradation, cycloheximide chase",12 µM,,inhibition,42%
Clc1ccc(N/N=C(\c2ccccc2)c2ccccn2)nc1,CD326+ cells,annexin V flow cytometry,"0.25 µM, 24 h",,apoptotic cells,~40%
C=CCn1c(=O)c2cnc(Nc3ccc(N4CCN(C)CC4)cc3)nc2n1-c1ccc2c(n1)[C@@](O)(CC)CC2,OVCAR-3,"flow cytometry, refers to: pHH3+ γH2AX-",concentration not given,,mitotic γH2AX-negative G2/M cells,15.5%
CN(C)CCCn1cc(C2=C(c3c[nH]c4ccccc34)C(=O)NC2=O)c2ccccc21,HeLa expressing Ub(G76V)-GFP,"Ub(G76V)-GFP degradation, inhibitor, cycloheximide chase",12 µM,,inhibition,55%
Nc1nc(S)nc(O)c1N=Cc1cn(-c2ccccc2)nc1-c1ccc(Cl)cc1,CCRF-CEM,carboxy-H2DCFDA flow cytometry,"concentration not given, 18 h",,ROS-positive cells,19.6%
Cn1cc(-c2ccc(-c3cncc(Cl)c3N3CCC4(CCNC4=O)CC3)cc2)cn1,COLO 205,"gene expression, microarray, refers to: MMP2 mRNA","concentration not given, 2 h",reference: untreated cells,log2 fold change,2.73
CC[C@@]1(O)C(=O)OCc2c1cc1n(c2=O)Cc2cc3c(CN(C)C)c(O)ccc3nc2-1,BT-12,"cell viability, MTT","10 µM, 72 h",,inhibition,93.5%
CC(Nc1nc(N2CCCC2)nc2ccccc12)c1ccccc1 (stereo not shown),HeLa Kyoto,"RelA nuclear import, high content imaging","0.02 µM, 3 h, added: 1 µM PMA, 60 min",,cells with nuclear RelA,88.4% and 86%
C=CC(=O)N1CCCN(C(=O)c2cc(Sc3cnc(NC(=O)C4CC4)s3)c(C)cc2OC)C[C@H]1C,human CD4 T cells,"refers to: LAG3, TIGIT, PD1","concentration not given, 6 days, added: chronic anti-CD3/CD28 stimulation",,exhaustion marker expression,decreased
Cc1cc(Nc2ncc(Cl)c(Nc3ccccc3S(=O)(=O)C(C)C)n2)c(OC(C)C)cc1C1CCNCC1,CLB-GE,"phosphoproteomics LC-MS/MS, refers to: KIAA1549 phosphorylation","200 nM, 60 min",reference: untreated,log2 fold change,-2.95
CCCOc1nc(-c2cccc(O)c2)cc(-c2cc3cc(Cl)ccc3nc2N2CCOCC2)c1C#N,NFS-60,MTT,,reference: WI-38 EC50 over NFS-60 IC50,selectivity ratio,0.25
CC/C(=N\NC(=O)NCc1cccc(O)c1)c1ccc(O)c(C)c1O,SK-OV-3,"gene expression, microarray, refers to: MYC","10 µM, 24 h",reference: DMSO,log ratio,3.33
CCCCN1C[C@H](O)[C@@H](O)[C@@H](O)[C@H]1CO,sample BC patient fibroblasts,"Gb3 level lowering, LC-MS/MS, refers to: Gb3 d18:1/24:0",216 h,,IC50,22.2 µM
O=C(O)C(Cc1c[nH]c2ccccc12)N1C(=O)c2ccccc2C1=O (stereo not shown),HBL-1,,"1 µM, 120 h",,viability,96.5%
Cc1c(C(=O)O)ccc2c3n(nc12)[C@@H]1[C@H](C3)N(CC2CC2)[C@@]2(C(=O)Nc3cc(Cl)ccc32)[C@H]1c1cccc(Cl)c1F,SNU-719,"cell proliferation, alamarBlue",,,GI50,0.00045 µM
CCOc1cc2ncc(C#N)c(Nc3ccc(F)c(Cl)c3)c2cc1NC(=O)/C=C/CN(C)C,BT-12,"cell viability, MTT","10 µM, 72 h",,inhibition,93.2%
Nc1nc(Nc2ccc(S(N)(=O)=O)cc2)nn1C(=O)c1c(F)cccc1F,HeLa expressing Ub(G76V)-GFP,"Ub(G76V)-GFP degradation, cycloheximide chase",12 µM,,inhibition,4%
CC1=NN(c2ccc(C(=O)O)cc2)C(=O)/C1=C\c1ccc(-c2cc(C)c(C)cc2[N+](=O)[O-])o1,HBL-1,,"1 µM, 120 h",,viability,98.9%
CC(=O)c1nn(-c2ccc(Cl)cc2)/c(=N/N=C(\C)c2ccc(NC(=O)c3ccc(C)cc3)cc2)s1,MCF7,,0.625 µM,,toxicity,73.5%
Cc1cnc2ccc3c(c2n1)N1CCC(O)N=C1N3C (stereo not shown),BALB/c 3T3,,100 µM,reference: solvent control,relative colony forming efficiency,0%
CN1CCc2c(c3ccccc3n2Cc2ccc(C(=O)NO)cc2)C1,HBL-1,,"0.5 µM, 120 h",,viability,128%
CC(C)c1nc(CN(C)C(=O)N[C@H](C(=O)N[C@@H](Cc2ccccc2)C[C@H](O)[C@H](Cc2ccccc2)NC(=O)OCc2cncs2)C(C)C)cs1,DYT1 ΔE cells,torsinA ΔE localization,"10 µM, added: ISRIB 50 nM",,mislocalization,decreased
CC(C)C[C@@H](C=O)NC(=O)[C@H](CC(C)C)NC(=O)[C@H](CC(C)C)NC(=O)OCc1ccccc1,HeLa expressing Ub(G76V)-GFP,"Ub(G76V)-GFP degradation, cycloheximide chase",10 µM,reference: DMSO,remaining activity,6.2%
O=C(/C=C/C=C/C=C/C1CCCCC1)NC1=C[C@@](O)(/C=C/C=C/C=C/C(=O)NC2=C(O)CCC2=O)[C@@H]2O[C@@H]2C1=O,KYSE-70,"cell growth, CellTiter-Glo",78 h,,GI50,11 µM
COC(=O)Nc1nc2ccc(C(=O)c3cccs3)cc2[nH]1,BT-12,"cell viability, MTT","10 µM, 72 h",,inhibition,80.6%
O=C([C@@H](Cc1cccc(C(F)(F)F)c1)NS(=O)(=O)c1cc(F)c2c(c1)CCNC2)N1CCCC1,HBL-1,,"0.1 µM, 120 h",,viability,102%
Cc1ccc(C=NNC(=O)C2CC(=O)N(c3ccc(F)cc3F)C2)cc1 (stereo not shown),MDA-MB-231 and fibroblast spheroids,MTT,"10 µM, day 8",,"viability reduction, up to",53.2%
CC(NC(=O)c1ccccc1/N=C/c1c(O)ccc2ccccc12)c1ccccc1 (stereo not shown),HBL-1,,"1 µM, 120 h",,viability,103%
CCn1cc(-c2cc(Cn3ccnc3)cc3c2CCN([C@H](c2cc(OC)ccn2)C2CC2)C3=O)c(C(F)(F)F)n1,HCC95,"cell growth, inhibitor",120 h,,EC50,> 30 µM
Cn1c(Nc2nc3ccc(C(F)(F)F)cc3s2)nc2cc(C(=O)NCCOCCO)ccc21,SH-SY5Y,"RNA-seq, refers to: SYT12 mRNA","5 µM, 5 h",reference: untreated cells,fold change,2.28
COc1cc2c(cc1-c1c(C)noc1C)ncc1[nH]c(=O)n([C@H](C)c3ccccn3)c12,HBL-1,,"0.1 µM, 120 h",,viability,122%
COc1cc2ncnc(Nc3ccc(Oc4ccccc4)cc3C)c2cc1OC.O=C(O)C(F)(F)F,NCI-H2087 (BRAF L597V),,"0.1 µM, added: trametinib 0 nM",,fractional effect,-0.0112
COc1cccc2c1C(=O)c1c(O)c3c(c(O)c1C2=O)C[C@@](O)(C(=O)CO)C[C@@H]3O[C@H]1C[C@H](N)[C@H](O)[C@H](C)O1,BT-12,"cell viability, MTT","10 µM, 72 h",,inhibition,93.5%
CCn1cc(-c2cc(Cn3ccoc3=N)cc3c2CCN([C@@H](C)c2cc(OC)ccn2)C3=O)c(C(F)(F)F)n1,HCC95,"cell growth, inhibitor",120 h,,EC50,2.73 µM
N#C/C(=C/c1ccc(O)c(O)c1)C(=O)NCc1ccccc1,HeLa expressing Ub(G76V)-GFP,"Ub(G76V)-GFP degradation, cycloheximide chase",12 µM,,inhibition,10%
CCOC(=O)Nc1cc(-c2ccc(C)c(NS(C)(=O)=O)c2)nn2c(C)nnc12,HBL-1,,"0.5 µM, 120 h",,viability,37.9%
